Assay results gathered from unrelated publications.
“And” joins repeats or separate records; there may be more than shown. Numbers after ± are the reported error. Values after ≈ are worked out from the molar mass of the structure shown.

| SMILES | test | system | conditions | how to read | quantity | value |
| --- | --- | --- | --- | --- | --- | --- |
| CN(Cc1ccc(F)cc1)Cc1cc(=O)oc2cc(O)ccc12 | – | HepG2 cell medium | 0.5 mM, 30 min | – | remaining intact compound | > 99% |
| [2H]C([2H])([2H])NC(=O)c1ccc(N2C(=S)N(c3ccc(C#N)c(C(F)(F)F)c3)C(=O)C2(C)C)cc1F | – | human, plasma | oral, 40 mg, single dose, fasted | – | CL/F | 272 mL/h |
| COc1cc2c(cc1OC)CN(CCCCn1ccc3cc(OCC[18F])ccc31)C2 | – | male CD-1 mouse, spleen | intravenous, 2 min | – | tracer uptake | 6.18 %ID/g |
| O=C(O)C1CN(Cc2ccc(-c3noc(-c4ccc(OCC[18F])c(C(F)(F)F)c4)n3)cc2)C1 | – | Sprague-Dawley rat, male, normal, thymus | iv, 5 min | – | tissue uptake | 0.15 ± 0.023 %ID/g |
| CCc1c2c(nc3ccc(O)cc13)-c1cc3c(c(=O)n1C2)COC(=O)[C@]3(O)CC | – | human patients, plasma | intravenous, 177 mg/m^2 of parent drug | – | Cmax | 652 ng/mL |
| Cn1c(=O)oc2ccc(-c3ccc(CC(C#N)NC(=O)C4CNCCCO4)c(F)c3)cc21 (stereo not drawn) | measured: alanine aminotransferase increased | human | 40 mg single dose, fasted | – | subjects with TEAE | 16.7% |
| CNC(=S)N/N=C/c1ccccn1 | cyclic voltammetry | anhydrous DMF | Cu2+ complex, glassy carbon electrode | – | peak potential separation | 0.13 mV |
| C/C=C/CNC(=N)NCCCCCCCCN1CCCc2cc(Cl)ccc2COc2ccccc2CNC(=N)NC1=O | – | PAMPA | 500 µM, 5 h, pH 7.4 | – | Papp | < 0.01 ×10⁻⁶ cm/s |
| CC(C)(Sc1ccncc1-c1ccc(C#N)c2ccccc12)C(=O)OC1OC(C(=O)O)C(O)C(O)C1O (stereo not drawn) | – | plasma | oral, 15 mg, mild renal impairment | reference: impaired over normal renal function | AUC(0-inf) ratio | 115% |
| [11CH3]c1ccc2nc(C3CCC3)n(-c3ccc4[nH]ncc4c3)c2n1 | extrapolated from mouse | standard human, heart wall | – | – | absorbed dose | 4.9 µSv/MBq |
| O=C(Cc1ccccc1)Nc1nc2ccccc2n1Cc1ccccc1 | shake-flask LC-MS/MS | water | – | – | aqueous solubility | 1.2 µg/mL (≈ 3.51 µM) |
| COc1ccc2cc(-c3ccc(-c4ccc(C)cn4)nc3)oc2c1 | TCSPC | EtOH | – | – | radiative decay rate constant | 0.41 ns⁻¹ |
| C[C@@H](O)[C@H](NC(=O)[C@@H](NC(=O)[C@@H](N)CCCCN)[C@@H](C)O)C(=O)N[C@@H](CCCCN)C(=O)N[C@@H](CO)C(=O)O | – | hairless mouse skin | 50 µg/cm^2, 24 h | – | amount retained in dermis | not detected |
| COc1cc(F)c(C(C)C)cc1C1=C(CN2C(=O)O[C@H](c3cc(C(F)(F)F)cc(C(F)(F)F)c3)[C@@H]2C)CC(C)(C)CC1 | non-compartmental analysis | healthy male subjects, plasma | oral, 25 mg single dose | – | Vd/F per body weight | 19.8 L/kg |
| Cn1c(=O)n(Cc2ccc(C(=O)O)cc2)c(=O)c2cc(C#CCc3ccccc3)ccc21 | – | PAMPA | – | – | Papp | 71 ×10⁻⁶ cm/s |
| CC(C)CCCC(C)CCCC(C)CCOC1O[C@H](CO)[C@@H](O)[C@H](O)[C@H]1O (stereo partly drawn) | filtration and HPLC-MS | water | room temperature | – | aqueous solubility | 13.1 ppm |
| Cc1ccc(N(CCc2nnc(S)o2)S(=O)(=O)c2ccc(C)cc2)cc1 | – | rat | 100 mg/kg | – | ulcer index | 40 |
| CC[C@H](C)[C@H](NC(=O)[C@H](Cc1ccccc1)NC(=O)[C@H](CC(=O)O)NC(=O)[C@H](CCCCN)NC(=O)[C@H](Cc1ccccc1)NC(=O)[C@H](Cc1ccccc1)NC(=O)[C@H](CCCCN)NC(=O)[C@H](CN)NC(=O)[C@H](CC(C)C)NC(=O)[C@H](CCCNC(=N)N)NC(=O)[C@H](CCSC)NC(=O)[C@H](C)N)C(=O)N[C@@H](CC(C)C)C(=O)N[C@@H](CCC(N)=O)C(=O)N[C@@H](CCCNC(=N)N)C(=O)N[C@@H](CCCCN)C(=O)N[C@@H](CCCCN)C(=O)O | circular dichroism | 20% TFE in PBS | 200 µM, pH 7.4, 25 °C | – | helicity | 18.4% |
| CCCCCCCCCCCCCCCC(=O)N[C@@H](CCCCN)C(=O)N[C@@H](CCCCN)C(=O)N[C@@H](CO)C(=O)N[C@@H](CCCNC(=N)N)C(=O)N[C@@H](C)C(=O)N[C@@H](CC(C)C)C(=O)N[C@@H](Cc1ccccc1)C(N)=O | – | cynomolgus monkey, male | 10 mg/kg, day 5 | – | prothrombin time | 12.2 ± 0.3 s |
| CC(NC(=O)OC1OC(C(=O)O)C(O)C(O)C1O)c1cc(Cl)ccc1Cn1c(=S)[nH]c(=O)c2[nH]ccc21 (stereo not drawn) | – | dog, both sexes, plasma | oral, 100 mg/kg/day | reference: dog over human 15 mg | exposure ratio | 0.7 |
| CC(C)c1cnc(-c2cc(Cl)ccc2F)cc1Nc1ccncc1C(=O)NC(CO)CO | monotherapy, measured: fatigue | human patients | oral, dose not given, grade 3, phase I A | – | patients with treatment-related adverse event | 2.4% |
| C[Si](C)(C)C[C@@H](CN)CC(=O)O | – | male Sprague-Dawley rat, plasma | oral, 30 mg/kg, 1 h, single dose | – | concentration | 50.3 µM |
| CN(C1COC1)C(C)(C)/C=C(\C#N)C(=O)N1CCC[C@H]1Cn1nc(-c2ccc(Oc3ccccc3)cc2F)c2c(N)ncnc21 | – | female Sprague-Dawley rat, plasma | oral, 40 mg/kg, 14 h | – | concentration | 3 ng/mL |
| CC[C@H](C)[C@H](NC(=O)[C@H](Cc1ccccc1)NC(=O)[C@H](CCN)NC(=O)[C@H](CCCNC(=N)N)NC(=O)[C@H](Cc1ccccc1)NC(=O)[C@H](Cc1ccccc1)NC(=O)[C@H](CCCCN)NC(=O)[C@H](CO)NC(=O)[C@H](CC(C)C)NC(=O)[C@H](CCCNC(=N)N)NC(=O)[C@H](CCSC)NC(=O)[C@H](C)N)C(=O)N[C@@H](CC(C)C)C(=O)N[C@@H](CN)C(=O)N[C@@H](CCCNC(=N)N)C(=O)N[C@@H](CCCCN)C(=O)N[C@@H](CCCCN)C(=O)O | circular dichroism | 20% TFE in PBS | 200 µM, pH 7.4, 25 °C | – | helicity | 5.1% |
| O=C([O-])CN1CCN(CC(=O)[O-])CCN(CC(=O)NCC2CCC(C(=O)NC(Cc3ccc4ccccc4c3)C(=O)NCCCCC(NC(=O)NC(CCC(=O)O)C(=O)O)C(=O)O)CC2)CCN(CC(=O)[O-])CC1.[44Sc+3] (stereo not drawn) | PET/CT dosimetry, OLINDA/EXM | human, kidneys | – | – | organ absorbed dose | 0.293 mSv/MBq and 0.18 mSv/MBq and 0.488 mSv/MBq |
| N=C(N)NCCC[C@@H]1NC(=O)[C@H](Cc2c[nH]c3ccccc23)NC(=O)[C@@H](CC2CCCCC2)NC(=O)[C@@H]2CCCN2C(=O)[C@@H](NC(=O)CCc2ccccc2)CCCNC1=O | – | C57BL/6J mouse, plasma plasma | intraperitoneal, 1 mg/kg single dose | – | MRT(0-last) | 24.8 min |
| O=C(N[C@@H](CC1CCCCC1)C(=O)N[C@@H](C[C@H]1CCNC1=O)C(=O)C(=O)NC1CC1)OCc1cccc(Cl)c1 | – | rat, Sprague-Dawley, female, plasma | intravenous, 10 mg/kg | – | volume of distribution | 0.0022 (mg/kg)/(ng/mL) |

Repeated from above:
| SMILES | test | system | conditions | how to read | quantity | value |
| --- | --- | --- | --- | --- | --- | --- |
| C/C=C/CNC(=N)NCCCCCCCCN1CCCc2cc(Cl)ccc2COc2ccccc2CNC(=N)NC1=O | – | PAMPA | 500 µM, 5 h, pH 7.4 | – | Papp | < 0.01 ×10⁻⁶ cm/s |
| CC(C)(Sc1ccncc1-c1ccc(C#N)c2ccccc12)C(=O)OC1OC(C(=O)O)C(O)C(O)C1O (stereo not drawn) | – | plasma | oral, 15 mg, mild renal impairment | reference: impaired over normal renal function | AUC(0-inf) ratio | 115% |
| [11CH3]c1ccc2nc(C3CCC3)n(-c3ccc4[nH]ncc4c3)c2n1 | extrapolated from mouse | standard human, heart wall | – | – | absorbed dose | 4.9 µSv/MBq |
| O=C(Cc1ccccc1)Nc1nc2ccccc2n1Cc1ccccc1 | shake-flask LC-MS/MS | water | – | – | aqueous solubility | 1.2 µg/mL (≈ 3.51 µM) |
